Assay results of several laboratories.
Lines come from different studies, so protocols differ.
Organism: Pseudomonas aeruginosa

Structure (SMILES) | method | strain | sample | time | temperature | MIC
O=[N+]([O-])c1ccc(Oc2cccc3cccnc23)c([N+](=O)[O-])c1 | – | ATCC 29853 | – | – | – | 125 µg/mL
CC[C@H](C)[C@H](NC(=O)CN)C(=O)NCC(=O)N[C@@H](C)C(=O)N[C@H](C(=O)N[C@@H](CC(C)C)C(=O)N[C@@H](CCCCN)C(=O)N[C@H](C(=O)N[C@@H](CC(C)C)C(=O)N[C@H](C(=O)N[C@H](C(=O)NCC(=O)N[C@@H](CC(C)C)C(=O)N1CCC[C@H]1C(=O)N[C@@H](C)C(=O)N[C@@H](CC(C)C)C(=O)N[C@H](C(=O)N[C@@H](CO)C(=O)N[C@@H](Cc1c[nH]c2ccccc12)C(=O)N[C@H](C(=O)N[C@@H](CCCCN)C(=O)N[C@@H](CCCNC(=N)N)C(=O)N[C@@H](CCCCN)C(=O)N[C@@H](CCCNC(=N)N)C(=O)N[C@@H](CCC(N)=O)C(=O)N[C@@H](CCC(N)=O)C(N)=O)[C@@H](C)CC)[C@@H](C)CC)[C@@H](C)O)[C@@H](C)O)C(C)C)C(C)C | broth microdilution | KCTC 1637 | – | 16 h | 37 °C | 1.6 µM
CC(C)C[C@H](NC(=O)[C@H](C)NC(=O)CNC(=O)[C@H](CC(C)C)NC(=O)[C@H](CC(C)C)NC(=O)[C@H](CCCCN)NC(=O)[C@H](CCCCN)NC(=O)[C@H](CC(C)C)NC(=O)[C@H](CC(C)C)NC(=O)[C@H](CCCCN)NC(=O)[C@H](CC(C)C)NC(=O)[C@H](CC(C)C)NC(=O)[C@@H](N)CCCCN)C(=O)NCC(N)=O | – | ATCC 19606 | CAMHB | 18 h | 37 °C | 21 µM
CC[C@H](C)[C@H](NC(=O)[C@H](Cc1ccccc1)NC(=O)[C@H](CC(=O)O)NC(=O)[C@H](CCCCN)NC(=O)[C@H](C)NC(=O)[C@H](CCCCN)NC(=O)[C@H](CC(N)=O)NC(=O)[C@H](CC(C)C)NC(=O)[C@H](Cc1c[nH]c2ccccc12)NC(=O)[C@H](CCC(=O)O)NC(=O)[C@H](CCCCN)NC(=O)[C@@H](NC(=O)CNC(=O)[C@H](C)N)[C@@H](C)O)C(=O)N[C@@H](CCCCN)C(=O)N[C@@H](CCC(=O)O)C(=O)N[C@@H](CCCCN)C(=O)NCC(=O)N[C@@H](CC(C)C)C(=O)NCC(=O)N[C@@H](CCSC)C(=O)N[C@@H](CC(C)C)C(=O)N[C@@H](CO)C(=O)N[C@@H](C)C(=O)N[C@@H](C)C(=O)N[C@@H](C)C(=O)N[C@@H](CC(N)=O)C(=O)N[C@@H](C)C(=O)N[C@@H](C)C(=O)N[C@@H](CC(C)C)C(=O)N[C@@H](CC(N)=O)C(=O)O | broth microdilution | ATCC 27853 | – | 20 h | 37 °C | > 40 µM
O=c1c(Cc2ccccc2)nc2ccccc2n1-c1ccc([N+](=O)[O-])cc1[N+](=O)[O-] | – | ATCC 29853 | – | – | – | 125 µg/mL
N=C(N)NCCC[C@H](NC(=O)[C@H](Cc1c[nH]cn1)NC(=O)[C@@H]1CCCN1C(=O)[C@H](CS)NC(=O)[C@@H]1CCCN1)C(=O)N[C@@H](CS)C(=O)O | broth microdilution | MTCC 1688 | – | – | 37 °C | 70 µg/mL
CC[C@H](C)[C@H](NC(=O)CNC(=O)[C@H](CCCNC(=N)N)NC(=O)[C@H](Cc1ccccc1)NC(=O)[C@@H](NC(=O)[C@H](Cc1c[nH]cn1)NC(=O)[C@H](Cc1c[nH]cn1)NC(=O)[C@H](Cc1ccccc1)NC(=O)[C@@H](N)Cc1ccccc1)[C@@H](C)CC)C(=O)N[C@H](C(=O)N[C@@H](Cc1c[nH]cn1)C(=O)N[C@H](C(=O)NCC(=O)N[C@@H](CCCCN)C(=O)N[C@H](C(=O)N[C@@H](CCCCN)C(=O)N[C@@H](Cc1c[nH]cn1)C(=O)N[C@@H](CCCNC(=N)N)C(=O)N[C@@H](CC(C)C)C(=O)N[C@H](C(=O)N[C@H](C(=O)NCC(N)=O)[C@@H](C)O)C(C)C)[C@@H](C)O)C(C)C)C(C)C | broth microdilution | ATCC 10662 | – | 18 h | 37 °C | 25 µg/mL
CSCC[C@H](NC(=O)[C@H](CCCNC(=N)N)NC(=O)[C@H](CCC(=O)O)NC(=O)[C@H](CCCNC(=N)N)NC(=O)[C@@H](NC(=O)[C@@H](NC(=O)[C@@H]1CCCN1C(=O)[C@H](Cc1c[nH]c2ccccc12)NC(=O)CNC(=O)[C@@H](NC(=O)[C@@H](NC(=O)[C@H](CO)NC(=O)[C@H](CO)NC(=O)[C@H](CCCCN)NC(=O)[C@H](CO)NC(=O)[C@H](Cc1c[nH]c2ccccc12)NC(=O)[C@H](CCCCN)NC(=O)CNC(=O)CN)C(C)C)C(C)C)[C@@H](C)O)C(C)C)C(=O)N[C@@H](CCCNC(=N)N)C(=O)O | broth microdilution | PTCC 1074 | – | overnight | 37 °C | 20 µM
CC[C@H](C)[C@H](NC(=O)[C@H](CC(=O)O)NC(=O)[C@H](Cc1ccccc1)NC(=O)[C@H](CC(C)C)NC(=O)CN)C(=O)N[C@H](C(=O)N[C@@H](CCCCN)C(=O)N[C@@H](CCCCN)C(=O)N[C@H](C(=O)N[C@H](C(=O)N[C@@H](CCCCN)C(=O)N[C@@H](CC(C)C)C(=O)N[C@@H](CC(C)C)C(=O)N[C@@H](CCCCN)C(N)=O)C(C)C)C(C)C)C(C)C | – | ATCC 19606 | CAMHB | 18 h | 37 °C | > 20 µM

Some of these lines once more:
Structure (SMILES) | method | strain | sample | time | temperature | MIC
CC[C@H](C)[C@H](NC(=O)CNC(=O)[C@H](CCCNC(=N)N)NC(=O)[C@H](Cc1ccccc1)NC(=O)[C@@H](NC(=O)[C@H](Cc1c[nH]cn1)NC(=O)[C@H](Cc1c[nH]cn1)NC(=O)[C@H](Cc1ccccc1)NC(=O)[C@@H](N)Cc1ccccc1)[C@@H](C)CC)C(=O)N[C@H](C(=O)N[C@@H](Cc1c[nH]cn1)C(=O)N[C@H](C(=O)NCC(=O)N[C@@H](CCCCN)C(=O)N[C@H](C(=O)N[C@@H](CCCCN)C(=O)N[C@@H](Cc1c[nH]cn1)C(=O)N[C@@H](CCCNC(=N)N)C(=O)N[C@@H](CC(C)C)C(=O)N[C@H](C(=O)N[C@H](C(=O)NCC(N)=O)[C@@H](C)O)C(C)C)[C@@H](C)O)C(C)C)C(C)C | broth microdilution | ATCC 10662 | – | 18 h | 37 °C | 25 µg/mL
